# Experimental data gathered from unrelated publications.
# A part holds a random share of what one study measured. Changes are numbered by the printed parent chain.

# Series 1
# Molecule: PhoQ, residues 284 288 289 292 302 303 TYGVAM
# Technique: Sort-seq
# Item: YFP reporter
# Medium: E. coli
# Notes: PhoQ-PhoP variant library
# Added: 10 µM Mg2+
# Relative to: high Mg2+ state
# Reading: higher = stronger signaling
target,fold induction
"PhoP, residues 12 14 15 18 19 VHTVL (Escherichia coli, UniProt P23836)",24.6
"PhoP, residues 12 14 15 18 19 ICWRQ (Escherichia coli, UniProt P23836)",9.64
"PhoP, residues 12 14 15 18 19 TQCLL (Escherichia coli, UniProt P23836)",11.1

# Series 2
# Target: RNA binding protein fox-1 homolog 2, RRM domain, GST-SBP tag (RBFOX2, Homo sapiens, UniProt O43251-10, residues 100-194)
# Technique: RNA Bind-n-Seq
# Form: RNA
# Medium: in vitro
# Concentration: 365 nM
# Notes: natural RNA segment, single round, ends assumed
# Relative to: no-protein control
# Reading: higher = stronger binding
# Constant ends, left off below: GGGAGUUCUACAGUCCGACGAUC … UGGAAUUCUCGGGUGCCAA
# Residues (chain): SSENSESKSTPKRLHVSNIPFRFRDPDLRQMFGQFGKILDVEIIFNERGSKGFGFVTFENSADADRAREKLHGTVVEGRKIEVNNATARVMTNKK
Oligonucleotide,RBNS enrichment (R)
ACAAGUUAGUUUGCUUUAAGCAGGUAACUUUUUUUGUAAUGGAAGAAAUGCACUACAAAGUUAAGACAGAUUUUUGCUAAGUGCAGGAGGCCCUUUAUUAUUGCUGCAGA,0.342
UUAUUUUUACAAAUUAUUGGAAAGAUAUCAUCAAUCGUAAAUUAGCCCUAAAACCUAAAUUUCAUUCAUGAAAUUUUUUUCUAAUUUUAAACACCCAGAAUCCCAUGUCC,0.308
AGACUCUGAUGGAAGGAAGGUGCCGUAGGUGGGCUUUUAGAAACUAACGGGACUGGUUUUCAAAGCAGUUAUCUUGGGAAACUGUUUAUUCCAGCGAUGUGACUUUUUUC,0.567
UACUGACCACUGGGUAUGUAAUCUUUGAGGGAUAUGCGCUUUUAGGAAAAAGGAUUUCCCUUUAAGGGAGCAAUCUAAGAUAGUCUCUGAAAGGCAGAAAGUUUACAAAU,0.625
AUAUUUGGAAGGCUUCCAUUUCCAUUGAAAACAAAUCCAUGAGUGAGAGGGAAAGUCUAGUAUCAAUUCUUCUGUUUGCUCGCAAUGACACAAAUAGGUUUUGGGGAUCU,0.397
GUCUGCUCUGAGCCUUAAAACACAGAUUGAAGAAGAAAAGAAAGAAAAAACUUAAAUAUUUAUUUCUAUGCUUUGUUGCCUCUGAGAAUAAUGACAAUUUAUGAAUUUGU,0.767
AAACUAAAAAUGAAUCAUAAAAAACAAAUGGGUACAUGAUAUGGUAAGAUAAAUGAGGGGGAAAAAAACUAAAAAUAUGCUUUUGUCCCAAAUAUCUCAUUUUACAAGGU,0.459
GGGGAAGAGGGGGUGGGUAAGCGCCCUCCUUCCUGUUUUUAUCUAAUAAAAUGCUAACCUGCCCAGGGUUCCUAUUACUGUGGGAGGGGUCCCCUGGGCCAGCCAGCGAU,0.563
UAUUUAUGAACCCAUGGGAGACUUUAAACUCUUGUAGAUAGAUGCUAAAUGCCCAGGCCCACUUAACUUAUUAAUGUGUGAAUUACAUUUAUGUUUUUAGUUUAUAUGCA,3
AAAACUGAUAAUAAUUGGGACAUCAUCUUACUUCCCAAAAUGUGUUUGCCUGUCCCCGGAGGCUGGAAGUAGAAGCCAGGCUACAUCUAAGUUGCCCUGACUGGCCUUCA,0.637
AACGUGACCUAGAAACCAAGAGAUACUGCUUCAUGUGUGGUCUUUAUUGGGCCACAGGAGGGUCAAUCUUGUGGGUCUGUGCUGUAAUCUGCCUUACUUGCACCCACCAG,0.35
CCUGCUCUCUCUGGCCUUGGGUCAUGAGGGUAUAAGGAAUAAACAUGGUGAGCUUGUUCUCCUUUUGAACCCCUUGUUCUUUUUUGUUACCGAGAGGAGGCAAGGUGCAG,0.51

# Series 3
# Target: Interferon regulatory factor 7, full length, phosphomimetic (IRF7, Homo sapiens, UniProt Q92985, residues 1-503, S471D/S472D/S475D/S476D/S477D/S483D/S484D/S487D)
# Technique: protein-binding microarray
# Form: double-stranded DNA, one strand shown
# Medium: in vitro
# Concentration: 2200 nM top
# Notes: 60-bp whole probe
# Added: salmon DNA 0.4 mg/ml
# Relative to: random background probes
# Reading: higher = stronger binding
# Constant ends, left off below: GCCTAGCAC … GTCTTGATTCGCTTGACGCTGCTG
# Construct (chain): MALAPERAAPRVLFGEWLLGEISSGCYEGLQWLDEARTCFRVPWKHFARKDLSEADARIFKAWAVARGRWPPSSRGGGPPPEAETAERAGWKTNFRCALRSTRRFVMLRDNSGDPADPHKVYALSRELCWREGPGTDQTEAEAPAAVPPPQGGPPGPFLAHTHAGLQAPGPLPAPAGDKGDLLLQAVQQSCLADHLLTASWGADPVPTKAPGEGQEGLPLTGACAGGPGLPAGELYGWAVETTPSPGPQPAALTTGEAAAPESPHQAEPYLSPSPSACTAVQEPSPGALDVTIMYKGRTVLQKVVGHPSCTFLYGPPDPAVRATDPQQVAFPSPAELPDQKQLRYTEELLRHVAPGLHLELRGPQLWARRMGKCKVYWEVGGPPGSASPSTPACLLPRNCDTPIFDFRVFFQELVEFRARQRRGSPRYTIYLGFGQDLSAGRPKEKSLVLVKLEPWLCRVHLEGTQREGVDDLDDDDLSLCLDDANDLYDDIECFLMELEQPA
Oligonucleotide,fitted relative affinity [z-score]
TTTTCATTTTCTTTAACTCAGTGCTAG,4.97
TCAACTCCCTCTCTGGCACTGTGCTAG,0.816
TGGGCTACCGGGTCCCTCTTGTGCTAG,-1.12
CACGATTTCAGTCTCGAGACGTGCTAG,1.37
TTAGGACTGCTTTTCCTTTAGTGCTAG,1.72
TCATTTTTCAAGAAACAGACTGTGCTA,0.236
GACGGGATCGGTCTCGGGACGTGCTAG,-0.753
TTTTTTTTTTTTTACTTCGGGTGCTAG,2.38
GTGAACCGGTCTCTCAGACCGTGCTAG,0.158
TTAGGTATCGGTATCGGGTAGTGCTAG,0.739
TCATTTCTAATGTTTTTTACTGTGCTA,1.31
GACGGTATCGGTATCGGTACGTGCTAG,0.695
TTAGATTTCTGTTCCGATTAGTGCTAG,2.65
TTAGGTATCCTTTCCCTTTAGTGCTAG,2.68
GACGGTTTCGAAACTGGGGACGTGCTA,3.37
TTAGATCTCAGTATCGATCAGTGCTAG,0.0298
TTAGAACTGGGGTTTCGATCAGTGCTA,0.764
GACCATCTCATATAAATAGGCGTGCTA,-0.0273
TCATAAATATCTTTGTTACTGTGCTAG,0.217
TTAGATATCAGCCTCGATTAGTGCTAG,0.186
TTAGGACTGGACTTTTGGTTAGTGCTA,-0.0774
TTAGATTTCAGTCTCGATGAGTGCTAG,0.379

# Series 4
# Target: CCNB1, cyclin fold, Cln2 fusion (human)
# Technique: yeast growth competition, sequencing
# Medium: yeast
# Notes: weak parent motif
# Relative to: not given
# Reading: higher = stronger binding
# Parent: SCAPER docking peptide (human); SNARRSLNFGGST
Change,normalised enrichment score
SNARRSLNFGGSP [T13P],0.572
SNARRSLQFGGST [N8Q],0.32
SNARRSLNFKGST [G10K],0.203
SNARRSLNFGWST [G11W],0.484
SNARQSLNFGGST [R5Q],0.434
SNARRSNNFGGST [L7N],-0.166
SNARRSLNFGRST [G11R],-0.353
SNARRYLNFGGST [S6Y],0.248
SNARRSMNFGGST [L7M],0.152
SNARRSLNFGHST [G11H],0.377
SNARRSLLFGGST [N8L],0.0689
SNARRSLNFGGSH [T13H],0.14
SNARRSLWFGGST [N8W],0.582
SNARRHLNFGGST [S6H],1.04
SNARRSLNFGGTT [S12T],-0.108

# Excerpt of the above (series 4):
Change,normalised enrichment score
SNARRHLNFGGST [S6H],1.04
SNARRSLNFGRST [G11R],-0.353
SNARQSLNFGGST [R5Q],0.434
SNARRSLLFGGST [N8L],0.0689
SNARRSLQFGGST [N8Q],0.32
SNARRSLNFGHST [G11H],0.377
SNARRSLNFGGSH [T13H],0.14
